Measured values gathered from unrelated publications.
± marks the error that the study gave.

O=C(O)C1OC(Oc2ccccc2-c2cc(=O)c3ccccc3o2)C(O)C(O)C1O (centres unmarked) — result for “intracellular glucuronide concentration”: 92.7 ± 11.3 µM (HeLa-UGT1A9 cells; 20 µM aglycone loading, end of excretion).
For COc1ccc(/C=C/C(=O)c2ccccc2)cc1OC, cytotoxicity read “toxic” (K562 transfected; concentration not given, added: TNF-alpha).
With CCC1=C(CC)C2=[N+]3C1=Cc1c(CC)c(CC)c4[n]1[Ir-3]31([C]#[N+]c3ccc(OC)cc3)([C]#[N+]c3ccc(OC)cc3)[n]3c(c(CC)c(CC)c3=CC3=[N+]1C(=C4)C(CC)=C3CC)=C2.F[B-](F)(F)F the cellular uptake was 116 ± 20.6 µg iridium/g protein (NCI-H460; ICP-MS; 1 µM, 2 h).
Under “cells with one aberration”, CCC(=O)N(C)c1ccc(Cl)c(Cl)c1 is recorded as 0% (CHO-WBL; 0.063 mg/mL, 3 h, without S9 activation).
O=C(O)C1OC(Oc2c(-c3cccc(O)c3)oc3ccccc3c2=O)C(O)C(O)C1O (centres unmarked): “intracellular glucuronide concentration” 3.65 ± 0.09 µM (HeLa-UGT1A9 cells; refers to: 3-O-glucuronide; 0.3125 µM aglycone loading, end of excretion).
CC(C)=CCc1cc(-c2coc3cc(O)c(CC=C(C)C)c(O)c3c2=O)ccc1O gave a viability of 134% (SW480; cell growth or viability, MTT; 12.5 µg/mL).
O=C(O)C1OC(Oc2cccc(-c3cc(=O)c4ccccc4o3)c2)C(O)C(O)C1O (centres unmarked): “intracellular glucuronide concentration” 85.7 ± 9.88 µM (HeLa-UGT1A9 cells; 20 µM aglycone loading, end of excretion).
The viability of CC12CCCC(n3cc(C(=O)N4CCCC(N)C4)nn3)(C1)C1CC(C)(C)C1CC2 (centres unmarked) is reported as 73.6% (HT-29; 0.5 µM, 72 h, without Z-VAD-FMK pretreatment).
For CC(=O)NC1C(N=C(N)N)C=C(C(=O)OC(C)OC(=O)C(N)C(C)C)OC1C(O)C(O)CO (mixture of isomers), “apparent permeability ratio” read ~3 fold (Caco-2 monolayer; apical to basolateral; relative to: isoleucyl prodrug).
CC[C@H](C)[C@H](NC(=O)[C@H](Cc1c[nH]c2ccccc12)NC(=O)[C@H](CCCNC(=O)c1ccc2c(c1)C(=O)OC21c2ccc(O)cc2Oc2cc(O)ccc21)NC(=O)CNC(=O)[C@H]1CCCN1C(=O)[C@@H](NC(=O)[C@H](CCCNC(=N)N)NC(=O)[C@@H](NC(=O)[C@H](Cc1c[nH]c2ccccc12)NC(=O)[C@H](CCCNC(=N)N)NC(C)=O)C(C)C)C(C)C)C(=O)N[C@@H](CCCNC(=N)N)C(=O)N[C@@H](CCC(N)=O)C(=O)N[C@@H](CC(C)C)C(=O)N[C@@H](CCCNC(=N)N)C(=O)NCC(=O)NCC(N)=O has a half-saturation concentration of 68.8 µM (HeLa; peptide uptake, fluorescence microscopy; range over 80 to 160 µM, 90 min, 37 °C).
COc1ccc(-c2coc3c(CC=C(C)C)c(O)c(CC=C(C)C)c(O)c3c2=O)cc1O gave a viability of 83.2% (SW480; cell growth or viability, MTT; 12.5 µg/mL).
O=C(Nc1ccc2c(c1)CN(c1ccc(Cl)c(Cl)c1)C2=O)N1CCN(c2ccccc2)CC1 gave an IC50 of > 64 µM (primary peritoneal mouse macrophages; cytotoxicity; 5% fetal calf serum).
The inhibition of CC(C)NC(=O)NNS(=O)(=O)c1ccc2c(c1)n(C)c(=O)c(=O)n2C is reported as 10% (hTERT-RPE1; cell viability, MTT; concentration not given).
With CC(=O)N[C@H](C(=O)N[C@H](C(=O)N[C@@H](CCCNC(=N)N)C(=O)N1Cc2ccccc2C[C@H]1C(=O)N[C@@H](Cc1ccccc1)C(N)=O)C1CCCCC1)C(C)C the cytokine level was 6 ± 7.6 pg/mL (human PBMC; Bio-Plex multiplex, refers to: G-CSF; 500 µg/mL, 24 h).
O=c1[nH]cc(C(c2cccc(C(F)(F)F)c2)c2c[nH]c(=O)[nH]c2=O)c(=O)[nH]1 — result for cytotoxicity: “not toxic” (Mo7e; 1 µg/mL).
CC1(C)CCC23COC4(C=CC5C6(C)CCC(O)C(C)(CO)C6CCC5(C)C4(C)CC2O)C3C1 (centres unmarked) — result for “recovery basolateral to apical”: 88.4% (Caco-2 monolayer; Caco-2 bidirectional transport; 10 µM, 3 h, 37 °C).
O=C(CCC(=O)NCCS(=O)(=O)O)NCCNC(=O)[C@@H](Cc1ccccc1)NC(=O)[C@@H](Cc1ccccc1)NC(=O)CCNc1ccc([N+](=O)[O-])c2nonc12: “intracellular concentration after washes” 0.08 mM (HeLa; 200 µM, 24 h, five PBS washes).

For quick reference, copied from above:
Under “cells with one aberration”, CCC(=O)N(C)c1ccc(Cl)c(Cl)c1 is recorded as 0% (CHO-WBL; 0.063 mg/mL, 3 h, without S9 activation).
O=C(O)C1OC(Oc2cccc(-c3cc(=O)c4ccccc4o3)c2)C(O)C(O)C1O (centres unmarked): “intracellular glucuronide concentration” 85.7 ± 9.88 µM (HeLa-UGT1A9 cells; 20 µM aglycone loading, end of excretion).
